# Experimental data from different studies.
# A part holds a random share of what one study measured. Positions count from the first letter of the parent shown.

# Study 1 — technique: RNA Bind-n-Seq; molecule type: RNA; sample: in vitro; concentration: 365 nM; relative to: no-protein control; direction: higher = stronger binding
# Target: RNA binding protein fox-1 homolog 2, RRM domain, GST-SBP tag (RBFOX2, Homo sapiens, UniProt O43251-10, residues 100-194)
# Setting: natural RNA segment, single round, ends assumed
# All sequences stand within: GGGAGUUCUACAGUCCGACGAUC … UGGAAUUCUCGGGUGCCAA
# Construct (chain): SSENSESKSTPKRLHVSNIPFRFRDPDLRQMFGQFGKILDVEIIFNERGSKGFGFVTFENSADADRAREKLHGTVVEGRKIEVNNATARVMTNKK
Strand,RBNS enrichment (R)
UUUUUUUUUCAAGCAGCAGUCCUAGGUAUUAACUGGAGCAUGUGUCAGAGUGUUGUUCCGUUAAUUUUGUAAAUACUGCUCGACUGUAACUCUCACAUGUGACAAAGUAU,2.04
UUUGAACAUUUUGUCCCCUUUCCAGUGAAAAACUAAAAAGUAGUCAUCUGCCAUUACUGUUAUUUGCUGAUUUUAUUUUAUUUUGAUGGUAAUAUUCUAUCCUUAUGACA,0.343
CUGGAGAUCAGGGAGCUUCGUGUGUGUGUGUGUGUGUGUGUGUGUGUGUGUGUGUGUGUGUGCGUGCGCGCGCGCGUGCGCACGCACGUGCAUGCACAUGCUAUGUAUUG,3.4
UCCCUUCCCGGCACGUGGAUUUUUUUUUUCAGUUUGUUAGAAGCCAGUGUAUGUCUUAAGCCUCUGCAAAAAAAAAAAAAAAUUGUUAGAUAAUGAUCCUAAAAGUGUUC,1.94
ACUGUCAAAUGCUGGUAUUGAAUGGGGACUGAGGAUGGGUCUCAGAGAGCAACCUCCUCCCUCGUAGAGGGAGAUUAUAUCCCCAACUCCAGGGACCUCUUUAUCUCAAU,0.256
GUAGUUCAAGGAGAAACCUGUCCAAGUUGAUGCCAAAGAUUUACUGCCAACCUUUUCCCCCCAAGGGAAAAAAUAUACGCAAGUAUAAAGCAUCUACAUCAAUGUUUAUA,0.208
GAAAUCACAGGCAUUGGGCUCUGUUUUGACACCAUUCAUUGGACUGCGGGACAGUCAUUCUUUACGUUCUCUCUUGAGCUGGUGAGAGAGGAGGAAGAGGGAAGUCAAGA,0.923
UGCUCUUUAUUCCAGACAAGGCAGGAAAGUCUGAGUUGGGAGUGACAGUGGCUGGAGAGAAGCAGAUCUGUGCAACGUGCAGGGCAAGCCAGUGGCGUGGCCUCUGCCUC,0.632

# Study 2 — technique: protein-binding microarray; molecule type: double-stranded DNA, one strand shown; sample: in vitro; concentration: 250 nM; setting: 60-bp whole probe; with: salmon DNA 0.4 mg/ml; relative to: random background probes; direction: higher = stronger binding; all sequences stand within: GCCTAGCAC … GTCTTGATTCGCTTGACGCTGCTG
# Target: Interferon regulatory factor 7, full length, phosphomimetic (IRF7, Homo sapiens, UniProt Q92985, residues 1-503, S101K/S471D/S472D/S475D/S476D/S477D/S483D/S484D/S487D)
# UniProt Q92985, sequence (whole entry, unmodified, looked up): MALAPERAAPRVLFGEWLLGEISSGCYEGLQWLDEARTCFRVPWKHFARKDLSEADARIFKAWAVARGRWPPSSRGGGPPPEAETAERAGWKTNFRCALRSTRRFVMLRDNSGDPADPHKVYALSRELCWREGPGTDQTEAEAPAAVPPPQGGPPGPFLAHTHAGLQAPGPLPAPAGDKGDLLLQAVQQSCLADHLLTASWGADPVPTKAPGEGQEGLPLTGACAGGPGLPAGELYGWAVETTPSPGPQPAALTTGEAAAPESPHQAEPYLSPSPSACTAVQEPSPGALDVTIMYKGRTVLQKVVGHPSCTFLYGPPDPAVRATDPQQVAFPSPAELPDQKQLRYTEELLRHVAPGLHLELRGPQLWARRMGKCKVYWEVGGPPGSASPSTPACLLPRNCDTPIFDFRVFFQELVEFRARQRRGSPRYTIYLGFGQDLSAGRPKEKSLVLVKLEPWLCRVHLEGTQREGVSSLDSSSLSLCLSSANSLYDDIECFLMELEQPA
Strand,log fluorescence
GACGATATCAGATTGGAGACGTGCTAG,-0.135 z-score
CGCTCCCTTTATTCCACATTGTGCTAG,1.11 z-score
TTAGGACTGCTCCTCCTTTAGTGCTAG,-0.106 z-score
TTAGGTGTCGGGTATCGGTTAGTGCTA,0.433 z-score
GACGATATCATTTTCGAGACGTGCTAG,0.656 z-score
TCACATACTAATTTCCAACTGTGCTAG,0.671 z-score
TCAGTCTTCAGGTTCTCACTGTGCTAG,-0.12 z-score
TTAGGTCTCCCACTGCTTTAGTGCTAG,0.0249 z-score
TCATGATCCATTTTGGTACTGTGCTAG,0.361 z-score
GACGATTTCGGGTGTCGAGACGTGCTA,0.121 z-score
ACTCGTGACCCTCTCAAAGGGTGCTAG,-0.301 z-score
GACGATTTCGGGTATCGGGACGTGCTA,0.701 z-score
TTCGGTCTCCTACTGCTTTAGTGCTAG,0.0964 z-score
GACGGTTTCGGTATCAGGACGTGCTAG,10.1 z-score
TCATTTCTCTTTCCTTCACTGTGCTAG,2.73 z-score
CCTAGTTTTACTTTCTATCTGTGCTAG,2.61 z-score

# Study 3 — technique: universal PBM; molecule type: double-stranded DNA, one strand shown; sample: in vitro; concentration: 600 nM; direction: higher = stronger binding
# Target: Sal-like protein 4, full length isoform A (SALL4, Homo sapiens, UniProt Q9UJQ4, residues 1-1053)
# UniProt Q9UJQ4, sequence (whole entry, looked up): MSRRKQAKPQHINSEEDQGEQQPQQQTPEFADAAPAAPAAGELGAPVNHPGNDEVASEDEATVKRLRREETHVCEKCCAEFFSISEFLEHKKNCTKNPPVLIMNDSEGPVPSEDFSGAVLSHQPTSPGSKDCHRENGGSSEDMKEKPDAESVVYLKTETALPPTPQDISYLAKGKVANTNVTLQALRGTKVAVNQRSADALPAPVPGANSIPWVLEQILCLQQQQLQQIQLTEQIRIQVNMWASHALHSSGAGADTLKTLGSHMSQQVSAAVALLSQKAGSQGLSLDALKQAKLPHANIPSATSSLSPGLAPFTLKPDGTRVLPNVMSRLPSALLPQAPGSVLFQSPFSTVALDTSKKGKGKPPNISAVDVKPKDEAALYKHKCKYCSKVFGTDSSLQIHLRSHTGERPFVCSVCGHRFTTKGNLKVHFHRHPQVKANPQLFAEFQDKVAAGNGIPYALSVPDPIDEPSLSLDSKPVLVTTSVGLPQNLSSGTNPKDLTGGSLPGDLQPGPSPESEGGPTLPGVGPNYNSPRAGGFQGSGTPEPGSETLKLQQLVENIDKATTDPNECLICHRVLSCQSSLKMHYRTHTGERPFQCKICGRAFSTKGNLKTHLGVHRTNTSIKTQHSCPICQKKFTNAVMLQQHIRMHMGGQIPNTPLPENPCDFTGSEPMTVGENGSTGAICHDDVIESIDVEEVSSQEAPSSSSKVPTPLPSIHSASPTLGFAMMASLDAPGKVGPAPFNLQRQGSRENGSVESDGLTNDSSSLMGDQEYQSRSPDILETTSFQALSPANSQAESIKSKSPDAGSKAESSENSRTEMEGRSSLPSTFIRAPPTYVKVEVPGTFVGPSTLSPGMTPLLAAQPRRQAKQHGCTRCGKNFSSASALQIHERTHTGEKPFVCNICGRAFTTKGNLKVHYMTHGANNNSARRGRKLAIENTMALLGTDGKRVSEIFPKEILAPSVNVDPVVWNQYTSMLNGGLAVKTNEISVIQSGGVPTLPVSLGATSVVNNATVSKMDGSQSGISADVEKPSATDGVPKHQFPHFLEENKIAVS
# Setting: 8-mer, flanks averaged, mean of replicates
Strand,E-score
GTGGCCGA,-0.248
CAGCTCAG,-0.334
AGGTGGAG,-0.116
CTAGCATA,0.214
AATCCCCC,-0.191
CCATTGCA,0.161
AATCACTC,0.128
GGAGCGCC,-0.396
AATCTACC,0.11
CAATCAGG,-0.059
TCAGCAGA,0.0306
AAATCCTA,0.191
AGGTAGAG,-0.00215
ACATCCAT,0.149
GAGACATC,-0.108
CTGTCACC,-0.128
ATCGTAAC,0.157
AATGCTAC,0.107
ATGATCAG,0.157
CCCCATAA,0.0433
CGGATAAA,0.209
ATGCCATG,0.0831
CCCGTGTA,-0.14
AAGCAGAG,0.0729
CTTGAGAA,0.166

# Study 4 — target: CCND3, cyclin fold, Cln2 fusion (human); technique: yeast growth competition, sequencing; sample: yeast; setting: weak parent motif; relative to: not given; direction: higher = stronger binding
# Starting sequence: CDKN1A docking peptide (human); SKACRRLFGPVDS; partner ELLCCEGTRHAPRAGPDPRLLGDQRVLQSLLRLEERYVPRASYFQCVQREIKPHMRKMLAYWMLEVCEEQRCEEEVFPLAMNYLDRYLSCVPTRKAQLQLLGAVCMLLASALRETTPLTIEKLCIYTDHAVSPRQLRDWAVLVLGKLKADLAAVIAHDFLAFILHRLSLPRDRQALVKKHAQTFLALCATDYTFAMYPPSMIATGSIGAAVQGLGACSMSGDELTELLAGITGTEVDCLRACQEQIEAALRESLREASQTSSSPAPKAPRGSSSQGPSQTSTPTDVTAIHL
Variant,normalised enrichment score
SKACRRLFGPVPS [D12P],-0.0157
SKACRRLFGPEDS [V11E],0.551
SKACRELFGPVDS [R6E],0.145
SKASRRLFGPVDS [C4S],0.496
SKACRRLFGEVDS [P10E],0.385
SKACVRLFGPVDS [R5V],0.0568
SKACRRTFGPVDS [L7T],0.475
SKACRRFFGPVDS [L7F],0.0543
SKACRRRFGPVDS [L7R],-0.00043
SKANRRLFGPVDS [C4N],0.0551
SKACRRLFGQVDS [P10Q],-0.274
SKACRRNFGPVDS [L7N],0.316
SKICRRLFGPVDS [A3I],0.149
SKDCRRLFGPVDS [A3D],0.123
SKACRRLFGRVDS [P10R],0.871
SKACRWLFGPVDS [R6W],0.0944
SKACRRLFGTVDS [P10T],0.174

# Study 5 — technique: DHFR PCA, deep sequencing; sample: yeast; with: (+)-ABA 17 µM; relative to: wild-type fitted maximum; direction: higher = stronger binding
# Target: ABI1, truncated, D143A, DHFR fusion (Arabidopsis thaliana)
# Setting: methotrexate growth selection, single substitutions
# Starting sequence: PYL1, truncated, DHFR fusion (Arabidopsis thaliana); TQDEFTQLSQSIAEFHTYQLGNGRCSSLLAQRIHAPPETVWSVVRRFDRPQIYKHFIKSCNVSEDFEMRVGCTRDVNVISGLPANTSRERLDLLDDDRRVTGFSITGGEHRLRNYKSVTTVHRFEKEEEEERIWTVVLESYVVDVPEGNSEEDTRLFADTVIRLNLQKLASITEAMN; partner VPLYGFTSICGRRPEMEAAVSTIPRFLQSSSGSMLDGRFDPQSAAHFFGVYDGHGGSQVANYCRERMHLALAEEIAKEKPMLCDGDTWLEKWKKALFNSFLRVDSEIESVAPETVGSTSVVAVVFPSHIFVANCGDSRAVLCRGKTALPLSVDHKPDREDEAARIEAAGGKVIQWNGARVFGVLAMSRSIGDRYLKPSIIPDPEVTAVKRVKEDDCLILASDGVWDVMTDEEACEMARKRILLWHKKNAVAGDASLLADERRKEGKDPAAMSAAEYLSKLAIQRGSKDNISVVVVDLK
Variant,relative binding score [%]
S59F,43.2
I52A,88.2
E147F,78.3
G107A,62.5
D153Q,47.1
E14T,71.3
V62P,16.8
N85H,76.4
H122G,6.49
V137E,3.04
Y18C,52.6
R32S,73.3
V136H,24.3
E64A,84.4
V40N,-17.7
L164T,96.7
R155L,60.5
S87W,17.3
H16G,-3.18
A30H,84.7
V78D,5.92

# A few entries again (study 5):
Variant,relative binding score [%]
N85H,76.4
H16G,-3.18
R155L,60.5
V40N,-17.7
E64A,84.4
E14T,71.3
D153Q,47.1
